Assay results collected from several papers.
Compare with care: the assays were run in different laboratories. Values joined by “and” are separate records of one study, mostly repeats; a detail may differ. ± gives the spread as reported.
Sequence of UniProt P14091 (whole entry, looked up): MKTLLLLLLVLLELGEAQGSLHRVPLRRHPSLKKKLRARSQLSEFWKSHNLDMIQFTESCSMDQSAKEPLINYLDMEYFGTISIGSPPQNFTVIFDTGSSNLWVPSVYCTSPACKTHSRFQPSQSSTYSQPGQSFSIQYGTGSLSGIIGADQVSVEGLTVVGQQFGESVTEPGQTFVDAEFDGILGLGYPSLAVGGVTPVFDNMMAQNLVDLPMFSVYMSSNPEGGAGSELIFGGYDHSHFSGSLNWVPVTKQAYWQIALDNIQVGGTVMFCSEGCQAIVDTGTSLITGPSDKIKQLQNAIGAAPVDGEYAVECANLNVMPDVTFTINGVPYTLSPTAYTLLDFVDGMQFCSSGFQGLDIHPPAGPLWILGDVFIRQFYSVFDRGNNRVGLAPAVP
Sequence of UniProt O43293 (whole entry, looked up): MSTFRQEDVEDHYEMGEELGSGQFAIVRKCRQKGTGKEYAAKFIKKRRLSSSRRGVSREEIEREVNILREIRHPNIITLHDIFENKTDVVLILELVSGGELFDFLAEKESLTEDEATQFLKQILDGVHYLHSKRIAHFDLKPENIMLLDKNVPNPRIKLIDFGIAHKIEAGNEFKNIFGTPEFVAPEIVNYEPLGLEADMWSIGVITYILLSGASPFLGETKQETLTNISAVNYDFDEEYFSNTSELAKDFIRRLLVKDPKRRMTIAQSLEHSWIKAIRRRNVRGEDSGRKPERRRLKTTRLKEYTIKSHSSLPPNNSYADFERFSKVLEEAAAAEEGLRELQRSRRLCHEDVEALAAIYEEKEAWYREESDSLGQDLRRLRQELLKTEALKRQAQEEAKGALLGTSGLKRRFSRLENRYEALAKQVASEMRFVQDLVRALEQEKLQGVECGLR
Sequence of UniProt Q96S44 (whole entry, looked up): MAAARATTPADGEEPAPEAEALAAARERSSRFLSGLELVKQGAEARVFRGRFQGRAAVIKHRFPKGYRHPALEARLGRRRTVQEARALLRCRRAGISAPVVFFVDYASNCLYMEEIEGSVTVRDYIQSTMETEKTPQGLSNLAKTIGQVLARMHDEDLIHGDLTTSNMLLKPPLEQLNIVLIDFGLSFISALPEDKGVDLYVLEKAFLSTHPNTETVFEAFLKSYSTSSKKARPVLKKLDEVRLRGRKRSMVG
Sequence of UniProt P22303 (whole entry, looked up): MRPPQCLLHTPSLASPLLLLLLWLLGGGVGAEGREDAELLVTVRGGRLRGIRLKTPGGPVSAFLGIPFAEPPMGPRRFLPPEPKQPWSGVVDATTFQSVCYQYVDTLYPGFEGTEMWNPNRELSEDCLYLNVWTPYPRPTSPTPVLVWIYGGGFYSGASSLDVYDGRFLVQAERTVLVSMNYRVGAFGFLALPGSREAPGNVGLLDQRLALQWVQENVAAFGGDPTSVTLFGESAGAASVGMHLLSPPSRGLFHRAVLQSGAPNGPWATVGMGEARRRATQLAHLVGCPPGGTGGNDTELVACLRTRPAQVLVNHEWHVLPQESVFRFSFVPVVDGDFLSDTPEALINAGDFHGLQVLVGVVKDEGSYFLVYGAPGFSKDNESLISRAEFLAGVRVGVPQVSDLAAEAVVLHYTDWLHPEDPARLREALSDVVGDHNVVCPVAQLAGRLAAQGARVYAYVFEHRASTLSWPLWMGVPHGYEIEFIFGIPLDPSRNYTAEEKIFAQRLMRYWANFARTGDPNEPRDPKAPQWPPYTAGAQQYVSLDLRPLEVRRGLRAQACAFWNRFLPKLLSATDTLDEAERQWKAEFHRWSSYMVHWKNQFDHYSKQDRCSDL

C1=Cc2nc1cc1ccc([n-]1)c(C1CC1)c1nc(cc3ccc([n-]3)c2C2CC2)C=C1.CC(=O)[O-].[Mn+3] — mean plasma concentration (LC-MS/MS; Sprague-Dawley rat, plasma; oral gavage, dose not given, 360 min): 259 ng/mL
COc1cc(N2CCC(N3CCN(C)CC3)CC2)ccc1Nc1ncnc(Nc2ccccc2S(=O)(=O)C(C)C)n1 — treatment-emergent adverse events (item: Pyrexia; Japanese patients with solid tumours; oral, dose not given, all grades): 5 number (percent)
CO[C@H]1C[C@@H]2CC[C@@H](C)[C@@](O)(O2)C(=O)C(=O)N2CCCC[C@H]2C(=O)O[C@H]([C@H](C)C[C@@H]2CC[C@@H](OC(=O)NCCOCCOCCOCCOCCOCCOCCOCCOCCC(=O)N3CCc4cc(Cn5nc(-c6ccc7oc(N)nc7c6)c6c(N)ncnc65)ccc4C3)[C@H](OC)C2)C[C@@H](O)[C@H](C)/C=C(\C)[C@@H](O)[C@@H](OC)C(=O)[C@H](C)C[C@H](C)/C=C/C=C/C=C/1C — incidence of SAE (advanced solid tumour patients; intravenous, 1.6 mg/3 mg weekly, grade ≥3): 0%
O=S(=O)([O-])C(F)(F)C(F)(F)C(F)(F)C(F)(F)C(F)(F)C(F)(F)C(F)(F)C(F)(F)F.[K+] — mRNA level (RT-qPCR, item: Cd36; mouse, ethanol-fed, liver; dose not given; relative to: efavirenz): increased
Cc1cccc(Cn2nc(C3CC3)c3c(NC(=O)c4cnc5cc(OCCN6CCN(C)CC6)ccn45)cccc32)n1 — adverse events incidence (item: Pyrexia; human advanced solid tumours; oral, dose not given, all-causality,, all doses): 36.8%
C[C@H]1CN(c2n[nH]c3nc(N[C@H]4CC[C@H](NS(=O)(=O)CCC(F)(F)F)CC4)ncc23)CCO1 — relative abundance (EKC/KEOPS complex subunit TP53RK (TP53RK, Homo sapiens, UniProt Q96S44); inhibitor, Kinobeads competition profiling; 0.8 µM; relative to: vehicle): 1.12
Clc1ccc(-c2ccccc2)cc1 — alanine aminotransferase (Sprague-Dawley rat, female, serum; inhalation, 35 µg/rat, 24 h): 41 ± 4 U/L
C[C@@H](O)[C@H](NC(=O)[C@@H]1CSSC[C@H](NC(=O)[C@@H](Cc2ccccc2)NC(=O)CN2CCN(CC(=O)[O-])CCN(CC(=O)[O-])CCN(CC(=O)[O-])CC2)C(=O)N[C@@H](Cc2ccc(O)cc2)C(=O)N[C@H](Cc2c[nH]c3ccccc23)C(=O)N[C@@H](CCCCN)C(=O)N[C@@H]([C@@H](C)O)C(=O)N1)C(=O)O.[177Lu+3] — uptake (MEC1 treated with 50 µM zebularine; gamma counter; serum-free RPMI; 120 min, 37 °C): 2.02%
C[C@]1(CO)Cc2ncn(-c3ccc(C#N)c(Cl)c3)c2C(=O)O1 — Cmax at steady state (healthy Japanese adults, plasma; 40 mg once daily, multiple dose): 2830 nM
CC1(C)[C@H](C(=O)O[C@H](C#N)c2cccc(Oc3ccccc3)c2)[C@@H]1C=C(Br)Br — enzyme contribution to clearance (item: CYP1A2; human, age 6 months, recombinant human CYP1A2; 0.1 µM): 0.08%
CCC[C@@](N)(CO)CCc1ccc(OCCCCCC(C)C)cc1 — half-life (male hound dog, plasma; oral, 2.5 mg/kg, solution, median): 18.8 h
COc1ccc2c(c1)CN(C(=O)CCN1CCC(Cc3ccccc3)CC1)CC[S@@+]2[O-] — QTcF prolongation (female beagle dogs, chronic AV block; intravenous, 3 mg/kg, 1 h; relative to: before dosing): 20 ms
N#C/N=C1\SCCN1Cc1ccc(Cl)nc1 — concentration (soil; 0 days, nominal 10): 5.2 mg/kg dry soil
C[C@@H]1OC(=O)NN=C1c1ccc(-c2ccc(F)cc2)c(C(F)(F)F)c1 — patients with adverse event (phase I trial, item: Cough all grades; human patients; 10 mg loading then 0.5 mg daily): 0%
CN1CC[C@@H](c2c(O)cc(O)c3c(=O)cc(-c4ccc(C(F)(F)F)cc4Cl)oc23)[C@@H]1CO — patients with adverse event (item: Hypotension; relapsed B-cell malignancies or AML; oral, 50 mg, grade 3-4, continuous dosing): 0%
N#CCNC(=O)c1ccc(-c2ccnc(Nc3ccc(N4CCOCC4=O)cc3)n2)cc1 — Vpm/F (population PK model, NONMEM; human; metabolite of momelotinib, typical value, final model): 45.7 L
Cc1ccccc1NC(=O)Nc1ccc(CC(=O)N[C@@H](CCCCNC(=O)/C=C/c2cccnc2)C(=O)N[C@@H](CCCC(=O)O)C(=O)NC2(C(=O)NCCOCCOCCOCCOCC(=O)N[C@@H](CCCCNC(=S)Nc3ccc(CCCN(CCN4CCN(CP(=O)(O)O)CCN(CP(=O)(O)O)CC4)CC(=O)O)cc3)C(N)=O)CCCCC2)cc1 [gallium-68 labelled] — intact tracer (ZnCl2 solution; 2 h, 37 °C, together with: ZnCl2 1 mM): > 95%
CCc1ccc(CC/C=C/c2ccc3c(c2)C(=O)CC3)cc1 — large unstained cells (Sprague-Dawley rat, female, blood; oral, 30 mg/kg/day, 14 days): 1.1%
O=C(c1ccc(F)c(F)c1Nc1ccc(I)cc1F)N1CC(O)([C@@H]2CCCCN2)C1 — AE causing dose modification (human patients; oral, 1 mg/kg, dose expansion): 25%
CCCN(CCC)CCc1c[nH]c2ccccc12.Cl — IC50 (Acetylcholinesterase (ACHE, Homo sapiens, UniProt P22303); enzyme activity, inhibitor): inactive
CNC(=O)N(N(CCCl)S(C)(=O)=O)S(C)(=O)=O — half-life ratio (1 mM potassium phosphate; 50 °C; relative to: pH 7.6 over pH 7.2): ~2.4 fold
N[C@@H]1c2ccccc2OC12CCN(c1cnc3c(N4CCCc5ncccc54)n[nH]c3n1)CC2 — TEAE leading to death (patients advanced metastatic solid tumours; oral, 60 mg once daily, RP2D expansion phase): 0%
COc1ccnc(C(=O)N[C@H]2COC(=O)[C@H](Cc3ccccc3)[C@@H](OC(=O)C(C)C)[C@H](C)OC2=O)c1OCOC(=O)C(C)C — DT50 (pond water; 0.2 mg/L, 21.0 °C, whole system, aerobic mineralisation): 0.1 days
COc1cc2c(Oc3ccc4[nH]c(C)cc4c3F)ccnc2cc1OCC1(N)CC1 — Hematuria incidence (paediatric refractory sarcoma patients; 12 mg): 36.4%
O=C(Nc1ccccc1)C1CCN(C(=O)Oc2cccnc2)CC1 — change in Reality score (psychotropic effects VAS; healthy women; 100 mg; relative to: pre-dose baseline, direction not given): 0.3
[O-][S+]1CCc2nc(N3CCC(c4ncc(Cl)cn4)CC3)nc(NC3(CO)CCC3)c21 (stereo not shown) — adverse event incidence (item: Headache; healthy male humans; 12 mg twice daily): 37.5%
NCCCC[C@@H]1NC(=O)[C@@H](Cc2c[nH]c3ccccc23)NC(=O)[C@H](c2ccccc2)NC(=O)[C@@H]2C[C@@H](OC(=O)NCCN)CN2C(=O)[C@H](Cc2ccccc2)NC(=O)[C@H](Cc2ccc(OCc3ccccc3)cc2)NC1=O — subjects with discoloured faeces (healthy human volunteers; 1950 µg twice daily): 32%
COc1ncccc1-c1cnn2ccc(N3CCN(C(=O)OC(C)C)CC3)nc12 — drug concentration (rat, CCI cold allodynia model, plasma; oral, 10 mg/kg, 240 min): 1090 nM
CC(C)C[C@@H](NC(=O)[C@H](Cc1ccccc1)NC(=O)CNC(=O)[C@@H](C)NC(=O)[C@H](Cc1ccc(O)cc1)NC(=O)[C@@H]1CCCN1C(=O)[C@@H]1CCCN1C(=O)c1ccc[n+](C)c1)C(=O)O — half-life (rat medulla oblongata homogenate; 100 µM): > 1 h
O=C1Nc2cc3[nH]nc(-c4ccncc4)c3cc2CN1Cc1ccccc1 — patients with dizziness (CTCAE v4.03; advanced solid tumour patients; intravenous, 0.45 mg/kg, schedules 1/2): 100%
COc1ccc2nc3cc(Cl)ccc3c(Nc3cc(CN4CCCC4)c(O)c(CN4CCCC4)c3)c2n1 — creatinine level (mouse, blood; intraperitoneal, 57 mg/kg): 24.9 µmol/L
COc1cc(Nc2ncc(F)c(Nc3ccc4c(n3)NC(=O)C(C)(C)O4)n2)cc(OC)c1OC — IC50 (Cathepsin E (CTSE, Homo sapiens, UniProt P14091)): > 10 µM
COc1ccc(N2C(=O)N(c3c(C)cccc3Cl)Cc3cnc(Nc4ccc(C5CCN(C)CC5)cc4OC)nc32)nc1 — inhibition (Death-associated protein kinase 3 (DAPK3, Homo sapiens, UniProt O43293); kinase activity; 0.5 µM): 2.15%
CC(C)[C@H](N)C(=O)NCCCS(=O)(=O)O — plasma concentration (human; oral, 265 mg twice daily, 5 h post-dose, steady state, week 65): 297 ng/mL
C[C@@H](NC(=O)N1C(=O)[C@H](Cc2ccnc(N)c2)[C@H]1C(=O)O)C1CCCCC1 — incidence of AEs leading to death (healthy adult Chinese volunteers; continuous intravenous infusion, 1.0 mg/kg/h, 5-day infusion, CTCAE 5.0 grading): 0%
CC(=O)c1c(C)c2cnc(Nc3ccc(C4CCN(CCS(C)(=O)=O)CC4)cn3)nc2n(C2CCCC2)c1=O — patients with AST increased (HR+/HER2- advanced breast cancer patients; oral, dose not given, grade 3/4,, sample A patients): 1.2%
CC/C(=C(\c1ccccc1)c1ccc(OCCN(C)C)cc1)c1ccccc1 — half-life (CD-1 mouse, male, plasma; intraperitoneal, 30 mg/kg): 8.97 h
CC[C@H](C)[C@@H]1NC(=O)[C@@H]2CCCN2C(=O)[C@H](CC(C)C)NC(=O)[C@H](CC(C)C)NC(=O)CNC(=O)[C@@H](NC(=O)[C@@H](NC(=O)[C@H](CC(=O)O)NC(=O)CNC(=O)[C@@H](NC(=O)[C@H](C)NC(=O)CNC(=O)[C@H](CCCCN)NC(=O)[C@H](CC(C)C)NC(=O)[C@H](CC(C)C)NC(=O)[C@H](CCCCN)NC(=O)CNC(=O)[C@@H](NC(=O)[C@@H](N)CC(C)C)C(C)C)C(C)C)C(C)C)CSSC[C@@H](C(=O)O)NC1=O — log2 fold change (RNA-seq, item: Aqp1; mouse, traumatic brain injury model, frontal cortex and hippocampus; dose not given; relative to: TBI alone): -2.25
O=S(=O)(Nc1ccccc1)c1ccc(NC(=S)Nc2ccccc2)cc1 — mean platelet volume (mouse, male, blood; oral, 80 mg/kg daily, 14 days): 4.58 fL
C=CC(=O)N1CC[C@H](n2nc(C#Cc3cc(OC)cc(OC)c3)c3c(N)ncnc32)C1 — serum phosphate, median (human patients, serum; oral, dose not given, QD, before phosphate binder start): 5.85 mg/dL
O[C@H]1CCCN[C@@H]1CCCn1cnc2c(Cl)c(Cl)ccc21 — AUCtau (human, UGT2B7 ND+DD phenotype, plasma; oral, 150 mg twice daily, steady state): 1220 ng·h/mL
CC(C)[C@@H]1NC(=O)CNC(=O)[C@H](CC(N)=O)NC(=O)[C@H](CCCNC(=N)N)NC(=O)[C@H](Cc2ccc(O)cc2)NC(=O)[C@H](C(C)C)NC(=O)[C@@H](NC(=O)[C@@H](NC(=O)[C@H](CC(N)=O)NC(=O)[C@H](Cc2c[nH]c3ccccc23)NC(=O)[C@H](C)NC(=O)[C@H](Cc2ccccc2)NC(=O)CN)C(C)C)CSSC[C@@H](C(=O)N[C@@H](Cc2cnc[nH]2)C(=O)N[C@@H](CCCNC(=N)N)C(=O)N[C@@H](CCCNC(=N)N)C(=O)N[C@@H](C)C(=O)N[C@@H](CC(N)=O)C(N)=O)NC(=O)[C@H](C(C)C)NC(=O)[C@H](CCCNC(=N)N)NC1=O — remaining peptide (HPLC; mouse mammary gland homogenate; 2560 µM, 2.00 h, 37 °C, 50 mg/mL tissue): 67.2% and 78.9% and 73.5%
C=CC(=O)Nc1cc(Nc2nccc(Nc3cc(Cl)c(F)cc3C(C)(C)O)n2)c(OC)cc1N1CC[C@@H](N(C)C)C1 — patients with fatigue (human patients; oral, 400 mg, treatment-emergent adverse events): 35%
CC(C)(C)c1cc(-n2nc3ccccc3n2)c(O)c(C(C)(C)C)c1 — daily dermal exposure dose (human aged 16-21 years; concentration not given, sunscreen, 95th percentile): 4.35 ng/kg/day
CN[C@@H](C)C(=O)N[C@H]1CN(S(=O)(=O)c2cccc(S(=O)(=O)N3CC[C@H]4CC[C@@H](C(=O)NC(c5ccccc5)c5ccccc5)N4C(=O)[C@@H](NC(=O)[C@H](C)NC)C3)c2)CC[C@H]2CC[C@@H](C(=O)NC(c3ccccc3)c3ccccc3)N2C1=O — treatment-related AST elevation incidence (patients with advanced solid tumours; 0.6 mg, phase I monotherapy): 0%
CC(C)[C@H](O)C(=O)N[C@H]1Cc2ccc3c(c2)[C@]2(C4=C(c5nc(CO)co5)N=C(O4)[C@H](C(C)(C)C)NC1=O)c1cc(F)ccc1N[C@@H]2O3 — Cmax (NSG mice, female, MDA-MB-231-BrM2 xenograft, mammary fat pad; intravenous, 10 mg/kg, single MTD dose, together with: paclitaxel 40 mg/kg): 2050 ng/mL
